Published values of several laboratories.
Compare with care: the assays were run in different laboratories. Values joined by “and” are separate records of one study, mostly repeats; a detail may differ. ± marks the error that the study gave.
CA12: Carbonic anhydrase 12 (CA12, Homo sapiens, UniProt O43570)
Gria1/Gria2: Glutamate receptor AMPA 1/2 (Gria1/Gria2, Rattus norvegicus, UniProt P19490+P19491)
Chain of UniProt P19490 (whole entry, looked up): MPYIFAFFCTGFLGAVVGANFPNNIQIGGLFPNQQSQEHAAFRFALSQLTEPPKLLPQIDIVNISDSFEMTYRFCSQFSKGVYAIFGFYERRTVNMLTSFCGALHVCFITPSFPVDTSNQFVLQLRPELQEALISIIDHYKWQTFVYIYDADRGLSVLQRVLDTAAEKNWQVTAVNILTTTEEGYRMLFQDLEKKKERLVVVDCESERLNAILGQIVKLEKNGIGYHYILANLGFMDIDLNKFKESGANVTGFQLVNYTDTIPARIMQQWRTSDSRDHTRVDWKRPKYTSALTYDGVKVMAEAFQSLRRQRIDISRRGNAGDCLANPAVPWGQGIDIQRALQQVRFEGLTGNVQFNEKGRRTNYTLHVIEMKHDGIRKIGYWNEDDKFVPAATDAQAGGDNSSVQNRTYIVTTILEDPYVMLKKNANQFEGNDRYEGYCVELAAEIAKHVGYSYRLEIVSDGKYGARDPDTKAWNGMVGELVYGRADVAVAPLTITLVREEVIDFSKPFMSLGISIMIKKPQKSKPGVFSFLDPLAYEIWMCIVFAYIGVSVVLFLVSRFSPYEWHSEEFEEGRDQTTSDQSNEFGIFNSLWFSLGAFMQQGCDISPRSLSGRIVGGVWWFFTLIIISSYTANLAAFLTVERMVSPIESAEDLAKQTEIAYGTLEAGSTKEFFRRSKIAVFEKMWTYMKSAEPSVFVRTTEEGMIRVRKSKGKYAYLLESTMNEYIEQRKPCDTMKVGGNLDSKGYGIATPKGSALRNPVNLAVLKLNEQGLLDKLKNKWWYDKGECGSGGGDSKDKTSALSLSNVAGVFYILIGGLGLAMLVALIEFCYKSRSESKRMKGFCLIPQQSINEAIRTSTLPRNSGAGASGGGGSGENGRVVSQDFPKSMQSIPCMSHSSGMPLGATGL
Chain of UniProt P19491 (whole entry, looked up): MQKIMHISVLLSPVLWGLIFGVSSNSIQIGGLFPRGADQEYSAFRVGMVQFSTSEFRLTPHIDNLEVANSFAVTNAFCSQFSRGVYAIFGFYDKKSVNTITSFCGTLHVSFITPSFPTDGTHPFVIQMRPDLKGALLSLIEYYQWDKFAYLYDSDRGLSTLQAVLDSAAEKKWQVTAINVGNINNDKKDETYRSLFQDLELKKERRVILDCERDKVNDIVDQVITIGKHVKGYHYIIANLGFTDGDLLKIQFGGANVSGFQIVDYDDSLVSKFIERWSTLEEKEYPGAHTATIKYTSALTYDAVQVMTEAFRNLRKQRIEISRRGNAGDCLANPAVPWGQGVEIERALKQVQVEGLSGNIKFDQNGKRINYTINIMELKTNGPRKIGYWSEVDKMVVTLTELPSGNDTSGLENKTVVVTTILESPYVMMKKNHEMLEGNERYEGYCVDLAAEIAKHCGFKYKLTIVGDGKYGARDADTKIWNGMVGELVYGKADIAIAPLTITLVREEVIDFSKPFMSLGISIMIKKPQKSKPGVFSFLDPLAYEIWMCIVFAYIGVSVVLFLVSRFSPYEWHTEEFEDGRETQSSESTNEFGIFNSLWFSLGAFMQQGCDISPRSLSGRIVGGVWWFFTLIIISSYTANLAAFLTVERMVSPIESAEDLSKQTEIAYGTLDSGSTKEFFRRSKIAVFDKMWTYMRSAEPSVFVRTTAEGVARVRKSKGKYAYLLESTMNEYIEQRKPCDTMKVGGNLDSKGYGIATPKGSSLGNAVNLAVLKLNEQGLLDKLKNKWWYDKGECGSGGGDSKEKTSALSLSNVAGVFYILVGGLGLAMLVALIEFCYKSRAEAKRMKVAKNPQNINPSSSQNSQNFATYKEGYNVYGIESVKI
Sodium- and chloride-dependent glycine transporter 2: Sodium- and chloride-dependent glycine transporter 2 (Homo sapiens, UniProt Q9Y345)
Chain of UniProt P05106 (whole entry, looked up): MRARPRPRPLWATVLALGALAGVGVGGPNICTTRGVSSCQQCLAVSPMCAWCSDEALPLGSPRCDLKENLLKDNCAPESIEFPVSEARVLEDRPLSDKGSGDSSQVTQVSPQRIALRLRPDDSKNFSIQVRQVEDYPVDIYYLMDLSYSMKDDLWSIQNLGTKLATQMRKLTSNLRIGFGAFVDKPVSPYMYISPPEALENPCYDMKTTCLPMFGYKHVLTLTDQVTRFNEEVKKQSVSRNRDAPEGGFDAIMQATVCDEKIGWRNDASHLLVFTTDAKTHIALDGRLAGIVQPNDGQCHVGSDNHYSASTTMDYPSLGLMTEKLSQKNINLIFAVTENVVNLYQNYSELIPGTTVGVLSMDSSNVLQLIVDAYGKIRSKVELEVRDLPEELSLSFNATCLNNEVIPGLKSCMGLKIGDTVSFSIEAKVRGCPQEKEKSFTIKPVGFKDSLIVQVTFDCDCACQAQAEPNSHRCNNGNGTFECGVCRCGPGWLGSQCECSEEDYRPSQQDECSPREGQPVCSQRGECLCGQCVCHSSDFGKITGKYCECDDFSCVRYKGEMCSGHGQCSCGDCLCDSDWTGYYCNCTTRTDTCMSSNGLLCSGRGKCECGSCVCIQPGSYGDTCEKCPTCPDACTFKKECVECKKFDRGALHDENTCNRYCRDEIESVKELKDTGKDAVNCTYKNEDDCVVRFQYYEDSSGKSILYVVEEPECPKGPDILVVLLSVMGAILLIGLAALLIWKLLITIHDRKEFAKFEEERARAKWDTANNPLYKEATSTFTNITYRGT
Chain of UniProt O00206 (whole entry, looked up): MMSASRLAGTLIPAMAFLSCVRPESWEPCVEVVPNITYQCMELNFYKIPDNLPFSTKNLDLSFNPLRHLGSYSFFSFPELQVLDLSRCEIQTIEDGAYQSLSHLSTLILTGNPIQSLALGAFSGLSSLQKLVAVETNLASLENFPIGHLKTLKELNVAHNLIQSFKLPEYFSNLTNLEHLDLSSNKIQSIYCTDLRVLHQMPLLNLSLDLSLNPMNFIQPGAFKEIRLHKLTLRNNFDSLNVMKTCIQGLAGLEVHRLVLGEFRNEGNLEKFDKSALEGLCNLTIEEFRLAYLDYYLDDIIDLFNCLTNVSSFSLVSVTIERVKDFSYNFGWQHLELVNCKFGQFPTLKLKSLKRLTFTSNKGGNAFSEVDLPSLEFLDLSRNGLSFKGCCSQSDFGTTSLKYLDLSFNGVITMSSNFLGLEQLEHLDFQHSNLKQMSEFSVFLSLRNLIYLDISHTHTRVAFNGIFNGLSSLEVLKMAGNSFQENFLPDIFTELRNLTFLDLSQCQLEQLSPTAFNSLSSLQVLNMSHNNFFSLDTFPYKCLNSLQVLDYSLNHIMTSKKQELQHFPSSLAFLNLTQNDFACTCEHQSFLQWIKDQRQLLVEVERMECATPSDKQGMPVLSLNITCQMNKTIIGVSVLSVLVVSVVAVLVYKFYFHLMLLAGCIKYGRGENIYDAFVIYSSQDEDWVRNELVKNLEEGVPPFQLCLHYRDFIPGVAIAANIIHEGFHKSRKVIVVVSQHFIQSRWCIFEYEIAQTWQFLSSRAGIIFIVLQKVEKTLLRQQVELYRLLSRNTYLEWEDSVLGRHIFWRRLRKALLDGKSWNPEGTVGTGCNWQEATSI
Chain of UniProt P46089 (whole entry, looked up): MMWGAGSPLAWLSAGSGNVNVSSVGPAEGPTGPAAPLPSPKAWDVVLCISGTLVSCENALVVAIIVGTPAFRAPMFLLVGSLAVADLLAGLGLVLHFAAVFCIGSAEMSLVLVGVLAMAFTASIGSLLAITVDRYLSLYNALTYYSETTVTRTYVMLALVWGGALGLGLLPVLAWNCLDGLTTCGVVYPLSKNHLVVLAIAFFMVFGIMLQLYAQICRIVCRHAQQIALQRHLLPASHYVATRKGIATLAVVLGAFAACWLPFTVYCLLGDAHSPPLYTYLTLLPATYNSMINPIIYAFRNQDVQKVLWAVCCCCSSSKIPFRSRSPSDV
Chain of UniProt Q53HV7 (whole entry, looked up): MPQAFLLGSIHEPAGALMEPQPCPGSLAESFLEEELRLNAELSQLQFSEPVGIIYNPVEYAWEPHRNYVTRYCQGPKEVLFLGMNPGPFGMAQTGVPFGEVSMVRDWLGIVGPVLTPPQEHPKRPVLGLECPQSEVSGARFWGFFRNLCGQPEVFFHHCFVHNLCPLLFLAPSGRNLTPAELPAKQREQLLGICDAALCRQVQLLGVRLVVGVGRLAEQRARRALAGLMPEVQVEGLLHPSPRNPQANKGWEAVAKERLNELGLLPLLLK

`COC1CN([C@H]2CC[C@H]([C@@]3(C)Oc4c(Cl)cc(C(=O)NCc5c(SC)cc(C)[nH]c5=O)c(C)c4O3)CC2)C1` — result for “log2 fold change”: 1.78 (RNA-seq, refers to: GIPC2 mouse homolog; mouse, HT-1376 xenograft, whole blood; dose not given; baseline: vehicle).
The specific binding of `O=C1c2sc(-c3ccc(N4CCC(F)C4)nc3F)nc2CCN1c1cccnc1` (stereo not drawn) is reported as 35.1 nM (TAR DNA-binding protein 43, aggregated (TARDBP, Homo sapiens, UniProt Q13148); saturation autoradiography; human, FTLD-TDP type A brain sections; 3.125 nM).
With `CC(C)[C@@H]1NC(=O)[C@H](Cc2ccccc2)NC(=O)CSC[C@@H](C(N)=O)NC(=O)[C@H](CCC(=O)O)NC(=O)[C@H](CO)NC(=O)[C@H](Cc2c[nH]c3cccc(Cl)c23)NC(=O)[C@H](C2CCCCC2)NC(=O)[C@H](C(C)C)NC(=O)[C@H](Cc2ccc(O)cc2)NC(=O)[C@H](CC(=O)O)NC(=O)[C@H](Cc2c[nH]c3ccccc23)NC(=O)[C@H](Cc2ccc(N)nc2)NC(=O)[C@H](Cc2c[nH]c3ccc(Cl)cc23)NC(=O)[C@H](CCC(=O)O)NC1=O` the remaining activity was 80.5% (Interleukin-1 receptor-like 2 (IL1RL2, Homo sapiens, UniProt Q9HB29); reporter gene (SEAP), inhibitor, HEK-Blue IL-36R reporter; HEK-Blue IL-36R cells; 33.33 µM, 6 h, with: IL-36β 10 ng/mL).
The remaining binding of `Nc1ncc(-c2cc(-c3cnn(CC(F)(F)F)c3)ncc2F)nc1C(=O)NC1CNCC(F)C1` (stereo not drawn) is reported as 100% (ROCK1; KINOMEscan; 1 µM; baseline: DMSO control).
The remaining activity of `O=C=[N][Ru-4]123([n]4c5ccc(O)cc5c5c6c(c7cc(F)c[n+]1c7c54)C(=O)NC6=O)[S+]1CC[S+]2CC[S+]3CC1` (stereo not drawn) is reported as 103% (Map2k4 (Mus musculus, UniProt P47809); enzyme activity; 100 nM, mouse enzyme, with: 10 µM ATP; baseline: untreated).
For `COC(=O)[C@@]1(C)C=C(C(=O)Nc2cccc(C(=O)Nc3ccc(Nc4nccc(-c5cccnc5)n4)c(C)c3)c2)C(=O)CC1`, “normalized fluorescence polarization” read 0.871 (Mitogen-activated protein kinase 8, docking groove (MAPK8, Homo sapiens, UniProt P45983); peptide binding, inhibitor, fluorescence polarization; 25 µM, with: JIP1 peptide probe).
`COCCOc1cc2ncnc(Nc3cccc(-c4cn(CC(=O)Nc5ccc(S(N)(=O)=O)cc5)nn4)c3)c2cc1OCCOC` has a selectivity ratio of 5.67 (CA12; stopped-flow CO2 hydration; baseline: Ki hCA VI over Ki hCA XII).
`O[C@@H](COc1ccc2cc(Br)ccc2c1)Cn1ccnc1` gave a translation activity of 97.8% (Trypanosoma cruzi; reporter mRNA translation, inhibitor, refers to: Renilla luciferase mRNA; cell-free extract; concentration not given, test 2; baseline: positive over negative control).
`CN(Cc1cc(C2CC2)on1)C(=O)c1cccc(-c2ccc3c(c2)CCO3)c1` has a reaction rate of 0.00297 a.u. (Acetyl-coenzyme A synthetase 2 (ACS2, Candida albicans, UniProt Q8NJN3); enzyme activity, inhibitor, coupled pyrophosphate; 25 µM; higher is more activity).
For `COc1ccc2c(c1)C1CC(C)(N2)c2c(C)nc3ccc(OC)cc3c21` (stereo not drawn), the kon was 1970 M⁻¹ s⁻¹ (Glideosome-associated protein 50 (GAP50, Plasmodium falciparum, UniProt Q8I2X3); binding, surface plasmon resonance; 1:1 binding model).
For `COC(=O)Cc1cc2c(cc1C(=O)c1ccc(Cl)cc1Cl)OCO2`, “desensitization time constant” read 4.3 ± 0.3 ms (Gria1/Gria2; glutamate-evoked current, whole-cell patch clamp; HEK-293T; concentration not given, weighted tau, 500 ms pulse, with: glutamate).
`CCc1ccc(N2CCC(O)C2)cc1` (stereo not drawn) has an inhibition of 28.2% (Uridine nucleoside ribohydrolase (Trichomonas vaginalis, UniProt A2FTT0); 19F NMR; 50 µM, with: 0.01% Triton X-100).
`O=C(N[C@@H](Cc1ccc(OCCCCC2CCNCC2)cc1)C(=O)O)c1nc2ccccc2o1.O=C(O)C(F)(F)F` has a fibrinogen binding of 0.798 and 1.01 and 0.893 (Integrin alpha-IIb/beta-3 (Homo sapiens, UniProt P05106+P08514); inhibitor, flow cytometry; washed platelets, human; 30 nM, with: ADP and Alexa647-fibrinogen; baseline: untreated).
For `CC1=CC(C)=[N+]2C1=C(CCCCN1CCC(O)(c3ccc(Cl)cc3)CC1)c1c(C)cc(C)n1[B-]2(F)F`, “remaining specific binding” read 95.5 ± 3.8% (Sodium- and chloride-dependent glycine transporter 2; MS binding competition; 10 µM).
`Cc1cc(=O)oc2cc(OCCCCCCSC#N)ccc12` gave a selectivity ratio of > 1580 (CA12; stopped-flow CO2 hydration; baseline: Ki CA I over Ki CA XII).
The current amplitude of `COC(=O)Cc1cc2c(cc1C(=O)c1cccc(Br)c1)OCO2` is reported as 237 ± 12 pA (Gria1/Gria2; glutamate-evoked current, whole-cell patch clamp; HEK-293T; concentration not given, pH 7.4, holding potential -60 mV, with: 10 mM glutamate).
The activity of `COc1cc2nccc(Nc3ccc(Oc4ccccc4)cc3)c2cc1OC` is reported as 400 ± 200% (SMUG1 (Homo sapiens, UniProt Q53HV7); enzyme activity, activator, fluorescence; 20 µM; baseline: control).
For `O=S(=O)(Nc1ccc(CO)cc1)c1ccc(Cl)c(Cl)c1`, the Vmax was 0.15 nM NADH/s/nM enzyme (17-beta-hydroxysteroid dehydrogenase 13 (Homo sapiens, UniProt Q7Z5P4); substrate, NADH fluorescence).
`C[Si](C)(C)C[C@@H](CN)CC(=O)O` gave an inhibition of 3% (alpha1 adrenergic receptor, rat; binding, radioligand binding; 75 µM, with: [3H]prazosin).
`Nc1ccccc1C(=O)NC1CCN(Cc2ccccc2)CC1`: “remaining specific binding” 94.9 ± 3.5% (Sodium- and chloride-dependent glycine transporter 2; MS binding competition; 10 µM).
With `CN(C)CCCCCN(C)Cc1cc2ccccc2o1` the translation activity was 95.2% (Trypanosoma cruzi; reporter mRNA translation, inhibitor, refers to: Renilla luciferase mRNA; cell-free extract; concentration not given, test 3; baseline: positive over negative control).
`CCCCCC(O)/C=C/C=O` (stereo not drawn): “isoTOP-ABPP competition ratio” 1.1 (Isoleucine--tRNA ligase, cytoplasmic (Homo sapiens, UniProt P41252); competitive isoTOP-ABPP, refers to: IARS cysteine peptide; Ramos soluble proteome; 100 µM, with: iodoacetamide probe; baseline: DMSO over compound-treated, higher = stronger cysteine blockade).
`O=C(O)Cc1cc2c(cc1C(=O)c1cccc(I)c1)OCO2` — result for “deactivation time constant”: 3.8 ± 0.3 ms (Gria1/Gria2; whole-cell patch clamp; HEK-293T; concentration not given, with: glutamate).
For `CC(C)Oc1cc(Cl)ccc1CNc1cc(-c2ccccc2)nc2ncnn12`, the cAMP luminescence was 55100 a.u. and 16700 a.u. and 44400 a.u. and 27000 a.u. and 43700 a.u. and 35200 a.u. and 50200 a.u. and 50000 a.u. (GPR3 (Homo sapiens, UniProt P46089); cAMP reporter; human cells; 1 nM; higher is more cAMP).
`CC[C@H](C)C(=O)O[C@H]1C[C@@H](C)C=C2C=C[C@H](C)[C@H](CC[C@@H]3CC=CC(=O)O3)[C@H]21` has an IC50 of 2.06 µM (CFTR (Homo sapiens, UniProt P13569); chloride current, inhibitor; T84, basolaterally permeabilized, apical membrane; with: forskolin, compound C pretreatment).
With `CNS(=O)(=O)Nc1nccc(Cc2c(C)c3ccc(Oc4ncccc4F)cc3oc2=O)c1F` the IC50 was 0.00604 µM (RERF-LC-Ad2; cell viability; 7 days).
`N=C(N)NCCS(=O)(=O)O`: “normalised MST signal” 0.0107 (SLC6A6 (Homo sapiens, UniProt P31641, G62A); binding, microscale thermophoresis; 244 nM, room temperature, with: 50 nM labelled protein; higher = more binding).
Under “melting temperature shift”, `C=CC(=O)N1CCCC(n2c(=O)c3ncccc3n(Cc3ccc(Oc4ccccc4)cc3)c2=O)C1` (stereo not drawn) is recorded as -4.7 (PPIF (Homo sapiens, UniProt P30405); thermal proteome profiling; 10 µM, destabilized proteins, unit not given; baseline: vehicle).
`C#CCOC(=O)[C@@]1(C)C=C(C(=O)OC(C)(C)C)C(=O)CC1`: “normalized kinase activity” 1.15 (MAPK1 (Homo sapiens, UniProt P28482); enzyme activity, D-SENSOR; 0.06097 µM, mean of replicates).
For `OC[C@@H]1[C@@H](O)[C@H](O)[C@@H](O)c2nccn21`, the ΔG was -9.919 ± 0.0406 kcal/mol (bglA (Thermotoga maritima, UniProt Q08638); ITC; pH 5.8, 25 °C).
For `O[C@@H]1[C@@H](O)[C@H](Cl)C=C[C@H]1O`, the reactivation rate was 0.00022 ± 2e-05 s⁻¹ (GBA1 (Homo sapiens, UniProt P04062); covalent inhibitor; concentration not given, pH 5.2, 25 °C).
Under “isoTOP-ABPP competition ratio”, `CCCCCCCCCCCCC/C=C/C=O` is recorded as 1 (Multifunctional methyltransferase subunit TRM112-like protein (TRMT112, Homo sapiens, UniProt Q9UI30); competitive isoTOP-ABPP, refers to: HSPC152 cysteine peptide; Ramos soluble proteome; 100 µM, with: iodoacetamide probe; baseline: DMSO over compound-treated, higher = stronger cysteine blockade).
`CC(C)C[C@@H]1NC(=O)C[C@@H](C(=O)N[C@@H](Cc2c[nH]c3ccccc23)C(=O)N[C@@H](CC(N)=O)C(=O)N[C@@H](C)C(=O)N2CCC[C@H]2C(=O)NCC(=O)N[C@@H](Cc2c[nH]c3ccccc23)C(=O)N[C@@H](Cc2ccccc2)C(=O)O)NC(=O)[C@H](C)NC(=O)[C@H](CCC(N)=O)NC(=O)[C@H](C(C)C)NC(=O)[C@H](C)NC(=O)[C@H](C(C)C)NC(=O)[C@H](C(C)C)NC1=O`: “OD450 in LPS binding ELISA” 0.508 a.u. and 0.489 a.u. and 0.469 a.u. and 0.45 a.u. (TLR4 (Homo sapiens, UniProt O00206); antagonist, ELISA; 1 µg/mL, with: LPS; baseline: DMSO control, lower means stronger antagonism).

Some of these lines once more:
For `O[C@@H]1[C@@H](O)[C@H](Cl)C=C[C@H]1O`, the reactivation rate was 0.00022 ± 2e-05 s⁻¹ (GBA1 (Homo sapiens, UniProt P04062); covalent inhibitor; concentration not given, pH 5.2, 25 °C).
Under “isoTOP-ABPP competition ratio”, `CCCCCCCCCCCCC/C=C/C=O` is recorded as 1 (Multifunctional methyltransferase subunit TRM112-like protein (TRMT112, Homo sapiens, UniProt Q9UI30); competitive isoTOP-ABPP, refers to: HSPC152 cysteine peptide; Ramos soluble proteome; 100 µM, with: iodoacetamide probe; baseline: DMSO over compound-treated, higher = stronger cysteine blockade).
